Results of several laboratories.
Compare with care: the assays were run in different laboratories. ± marks the error that the study gave. In brackets after ≈: the same amount, converted by molar mass.

The chains behind the UniProt entries cited, without tags or fusion partners.
UniProt P35348, whole entry: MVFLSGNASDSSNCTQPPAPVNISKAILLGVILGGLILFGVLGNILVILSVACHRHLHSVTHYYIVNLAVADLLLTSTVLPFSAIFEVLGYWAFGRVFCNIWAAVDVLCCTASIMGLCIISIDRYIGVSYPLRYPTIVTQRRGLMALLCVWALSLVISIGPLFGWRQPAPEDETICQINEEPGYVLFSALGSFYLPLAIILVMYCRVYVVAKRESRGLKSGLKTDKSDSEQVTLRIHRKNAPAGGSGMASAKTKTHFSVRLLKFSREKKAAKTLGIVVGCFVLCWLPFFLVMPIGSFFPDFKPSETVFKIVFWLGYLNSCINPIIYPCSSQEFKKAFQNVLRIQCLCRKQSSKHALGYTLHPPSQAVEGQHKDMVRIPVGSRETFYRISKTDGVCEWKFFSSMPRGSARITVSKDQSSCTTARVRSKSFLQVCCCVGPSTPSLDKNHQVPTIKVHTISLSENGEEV

| SMILES | tested on | test | system | setting | scale | quantity | result |
| --- | --- | --- | --- | --- | --- | --- | --- |
| O=C(O)c1ccc(-c2cccc(C(=O)O)c2)cc1 | Escherichia coli | bacterial growth, broth microdilution | expressing OXA-48 | 128 µg/mL, together with: ampicillin | MIC of ampicillin | MIC of ampicillin | 128 µg/mL |
| NCCNCCSc1ccccc1 |  | spectrophotometry |  | pH 5.6 |  | pKa | 5.74 |
| NC[C@@H](NC[C@@H]1CCCN1C[C@@H](CO)NC[C@@H](NCCC12CC3CC(CC(C3)C1)C2)c1ccccc1)c1ccccc1 | Acinetobacter baumannii | bacterial growth |  | compound alone |  | IC90 | 23.1 µM |
| Nc1cc(S(=O)(=O)O)cc2cc(S(=O)(=O)O)cc(O)c12 | Escherichia coli | bacterial growth, broth microdilution | expressing OXA-48 | 64 µg/mL, together with: ampicillin | MIC of ampicillin | MIC of ampicillin | 512 µg/mL |
| CN1CC[C@]23c4c5ccc(O)c4O[C@H]2c2ncc(-c4ccc(Cl)cc4)cc2C[C@@]3(OCCCc2ccccc2)[C@H]1C5 |  | tolerance | CD-1 mouse, chemotherapy-induced neuropathy | sc, 0.32 mg/kg twice daily, 4 days |  | days to zero efficacy | 2.1 days |
| CC(CCN[C@H](CN[C@H](CO)CN1CCC[C@H]1CN[C@H](CN)c1ccccc1)c1ccccc1)c1ccccc1 (stereo partly shown) | Acinetobacter baumannii | bacterial growth |  | 24 µM, fold shift of IC90, together with: amikacin |  | potentiation of amikacin | 3.7 fold |
| CSCC[C@H](N)C(=O)N[C@@H](C)C(=O)N[C@@H](CC(N)=O)C(=O)N[C@@H](CC(C)C)C(=O)NCC(=O)N[C@@H](Cc1ccc(O)cc1)C(=O)N[C@@H](Cc1c[nH]c2ccccc12)C(=O)N[C@@H](CC(C)C)C(=O)N[C@@H](CC(C)C)C(=O)N[C@@H](C)C(=O)N[C@@H](CC(C)C)C(=O)N[C@@H](Cc1ccccc1)C(=O)N[C@H](C(=O)N[C@H](C(=O)N[C@@H](Cc1ccc(O)cc1)C(=O)N[C@@H](Cc1c[nH]c2ccccc12)C(=O)N[C@H](C(=O)N[C@@H](CC(=O)O)C(=O)N[C@@H](CC(C)C)C(=O)NCC(=O)N[C@@H](CC(C)C)C(=O)N[C@H](C(=O)N[C@@H](CCCCN)C(=O)N[C@@H](CCCCN)C(=O)N[C@@H](CCCNC(=N)N)C(=O)N1CCC[C@H]1C(=O)N[C@@H](CCCCN)C(=O)N1CCC[C@H]1C(=O)O)C(C)C)[C@@H](C)O)[C@@H](C)O)C(C)C | monocyte-derived macrophages | qPCR and ELISA |  | 3.5 to 15 µM, 1 h pretreatment, together with: LPS |  | cytokine production | decreased |
| NC[C@@H](NC[C@@H]1CCCN1C[C@@H](CO)NC[C@@H](NCCc1ccc(Cl)c(Cl)c1)c1ccccc1)c1ccccc1 | Klebsiella pneumoniae | bacterial growth |  | 8 µM, fold shift of IC90, together with: amikacin |  | potentiation of amikacin | 1 fold |
| NC1=NC2(CCCCC2)N(c2ccc(OCc3cn(CCCCOc4ccc5ccc(=O)oc5c4)nn3)cc2)C(N)=N1 | Mycobacterium bovis BCG |  | resistant, fbiA L109P |  |  | MIC50 | 3.2 µM |
| CCCN(CCN1CCN(c2nccc3ccccc23)CC1)[C@H]1CCc2nc(N)sc2C1 | dopamine D3 receptor, mouse | agonist | D2 receptor knockout mouse, nucleus accumbens membranes |  | relative to: basal | Emax | 11.5 ± 2.8% |
| C[C@H](CS)C(=O)N[C@H](Cc1c[nH]c2ccccc12)C(=O)O | Escherichia coli |  | IMP-1 producing | 50 µM, together with: meropenem |  | MIC of meropenem | 0.5 µg/mL |
| CC(C)C(C(=O)N(Cc1ccc(C2CCCCC2)cc1)c1ccc(C(=O)O)cc1)N(C)S(=O)(=O)c1c(F)c(F)c(F)c(F)c1F (stereo not shown) |  |  | NSG mice, Pa03C xenograft | ip, 10 mg/kg, 15 days, study end | relative to: vehicle | tumour weight reduction | 36% |
| CC[C@H](C)[C@H](NC(=O)[C@H](C)NC(=O)[C@H](CCC(=O)O)NC(=O)[C@H](CCC(=O)O)NC(=O)[C@H](CC(C)C)NC(=O)[C@H](CCCCN)NC(=O)[C@H](CCCCN)NC(=O)[C@H](CCSC)NC(=O)[C@H](CCC(=O)O)NC(=O)[C@H](Cc1ccc(O)cc1)NC(=O)[C@H](CCC(=O)O)NC(=O)[C@H](CC(C)C)NC(=O)[C@H](CC(=O)O)NC(=O)[C@H](CC(C)C)NC(=O)[C@H](Cc1ccccc1)NC(=O)[C@H](Cc1ccc(O)cc1)NC(=O)[C@@H](NC(=O)[C@H](CC(N)=O)NC(=O)[C@@H](NC(=O)[C@H](CCC(N)=O)NC(=O)[C@H](CC(=O)O)NC(=O)[C@H](CC(C)C)NC(=O)[C@@H](N)CO)[C@@H](C)CC)C(C)C)C(=O)N[C@@H](CCCCN)C(=O)N[C@@H](CCCCN)C(=O)N[C@@H](CC(C)C)C(=O)N[C@@H](CCC(=O)O)C(=O)N[C@@H](CCC(=O)O)C(=O)N[C@H](C(=O)N[C@@H](Cc1ccc(O)cc1)C(=O)N[C@H](C(=O)N[C@@H](CC(=O)O)C(=O)N[C@@H](CC(C)C)C(=O)N[C@@H](CCCCN)C(=O)N[C@@H](CCC(=O)O)C(=O)N[C@@H](CC(C)C)C(=O)O)[C@@H](C)CC)[C@@H](C)O | HCoV-OC43 | viral infection, inhibitor, immunostaining | HCT-8 | 2 days, dual mutations |  | IC50 | 0.409 µM |
| NC[C@@H](NC[C@@H]1CCCN1C[C@@H](CO)NC[C@@H](NCCc1ccc(-c2ccccc2)cc1)c1ccccc1)c1ccccc1 | Klebsiella pneumoniae | bacterial growth |  | 24 µM, fold shift of IC90, together with: amikacin |  | potentiation of amikacin | 1 fold |
| CC1CCCCCCCCCCCCC(=O)C1 (stereo not shown) | Manis javanica OBP3 F52A |  |  | concentration not given | relative to: wild type | binding affinity | decreased |
| CCN(CC)C(=O)Oc1ccc(C(=O)Nc2cccc3cc[nH]c23)cc1 |  | whole-cell patch clamp | CA1 interneurons s.r./s.l.m., mouse P21-28, acute hippocampal slices | 10 µM, holding +40 mV | relative to: baseline | NMDAR-EPSC amplitude | 57 ± 3% |
| C=CC(=O)Nc1cc(-n2c(=O)ccc3cnc4ccc(-c5cn[nH]c5)cc4c32)ccc1C | Ramos | western blot, item: PARP and caspase-3 cleavage |  | 24 h |  | concentration inducing apoptosis | 300 nM |

| SMILES | tested on | test | system | setting | scale | quantity | result |
| --- | --- | --- | --- | --- | --- | --- | --- |
| Cc1ccc(-c2csc(NP(=O)(O)OCC3OC(n4c[n+](Cc5ccccc5)c5c(=O)[nH]c(NC(=O)c6ccccc6)nc54)C4OC(C)(C)OC34)n2)cc1 (stereo not shown) | MCF7 | item: β-actin |  |  |  | protein level | 5.17 ng/mL |
| O=S(=O)(O)c1ccc(-c2ccc(S(=O)(=O)O)cc2)cc1 | Escherichia coli | bacterial growth, inhibitor, broth microdilution | expressing OXA-48 | 256 µg/mL, together with: ampicillin | relative to: ampicillin alone | MIC fold reduction | 16 fold |
| [11CH3]Nc1ccc(C(=O)C2CCN(C3Cc4ccccc4CC3O)CC2)cc1 (single isomer, unassigned) |  |  | Sprague-Dawley rat, kidney | 30 min |  | uptake | 0.77 %ID/g |
| CCCCCCCCCCCCNC(=O)N[C@H](C(=O)N[C@H]1/C=C/CCNC(=O)/C=C/[C@H](C)NC1=O)C(C)C | MM1.S bortezomib-resistant | cell viability, CellTiter-Glo |  | 24 h |  | EC50 | 0.0805 ± 0.0058 µM |
| Nc1ccc2ccc(CCNCCCc3cccc(F)c3)cc2n1 | Bacillus subtilis NOS |  |  |  | relative to: KS I218V over KS wild type | selectivity ratio | 5 to 6 fold |
| Nc1n[nH]c(=O)[nH]1 | Aliivibrio fischeri | bioluminescence, Microtox |  | 30 min |  | IC50 | 82000 µM |
| Cc1cc(=O)oc2cc(OCCCCn3cc(COc4ccc(N5C(N)=NC(N)=NC56CCCCC6)cc4)nn3)ccc12 | Mycobacterium bovis |  | BCG Tac^r10.2, thyA W98R missense | TA-C-resistant thyA mutant |  | MIC50 | 3.2 µM |
| N#Cc1ccc2cc3c(=O)[nH]c(=O)nc-3n(-c3cccc(-c4nnn[nH]4)c3)c2c1 | CCRF-CEM | cell growth, ATPlite |  | 72 h |  | GI50 | 24.3 µM |
| O=S(=O)(O)c1ccc2c(c1)Cc1cc(S(=O)(=O)O)ccc1-2 | Escherichia coli | bacterial growth, broth microdilution | expressing OXA-48 | 256 µg/mL, together with: ampicillin | MIC of ampicillin | MIC of ampicillin | 32 µg/mL |
| Cc1c(C(=O)NN2CCCCC2)nn(-c2ccc(Cl)cc2Cl)c1-c1ccc(CCCCCBr)cc1 |  |  | mice, food-deprived | i.p., 30 mg/kg, 1 h intake, dosed 60 min before | relative to: vehicle, higher = less food | food intake decrease | 39% |
| CO[C@H]1[C@H](O[C@H]([C@H]2O[C@@H](n3ccc(=O)[nH]c3=O)[C@H](O)[C@@H]2O)[C@H](NCCCNC(=O)[C@@H](NC(=O)[C@@H](NC(=O)N[C@H](C(=O)O)C(C)C)[C@@H]2CCNC(=N)N2)[C@@H](OC(=O)CCCCCCCCCCCCNC(=N)N)C(C)C)C(N)=O)O[C@H](CN)[C@H]1O | Candida glabrata | alamar blue | DSY565 |  |  | MIC50 | > 35 µg/mL |
| COc1ccc(CN[C@@H]2CO[C@H](C(c3ccccc3)c3ccccc3)C[C@H]2O)cc1 | Alpha-1A adrenergic receptor (ADRA1A, Homo sapiens, UniProt P35348) | radioligand binding |  | 10 µM, together with: [3H]prazosin |  | inhibition | 51.6% |
| CO[C@H]1[C@H](O[C@H]([C@H]2O[C@@H](n3ccc(=O)[nH]c3=O)[C@H](O)[C@@H]2O)[C@H](NCCCNC(=O)[C@@H](NC(=O)[C@@H](NC(=O)N[C@H](C(=O)O)C(C)C)[C@@H]2CCNC(=N)N2)[C@@H](OC(=O)CCCCCCCCCCCCN(O)C(=N)N)C(C)C)C(N)=O)O[C@H](CN)[C@H]1O | Enterococcus faecium | alamar blue | NR-32065 |  |  | MIC90 | 15.2 ± 0.21 µg/mL (≈ 12.5 µM) |
| Cc1ccccc1S(=O)(=O)Nc1cccc(C(=O)NC2CCN(c3ncnc4[nH]cnc34)CC2)c1 | A549-ACE2 |  |  | 22.22 µM |  | viability | 93.4% |
| NC[C@@H](NC[C@@H]1CCCN1C[C@@H](CO)NC[C@@H](NCCC1CC2CCC1C2)c1ccccc1)c1ccccc1 (stereo partly shown) | Acinetobacter baumannii | bacterial growth |  | 16 µM, fold shift of IC90, together with: amikacin |  | potentiation of amikacin | 1.4 fold |
| O=C(NC1CCN(c2ncnc3[nH]cnc23)CC1)c1cccc(S(=O)(=O)Nc2ccc(Cl)cc2)c1 | A549-ACE2 |  |  | 0.01016 µM |  | viability | 100% |
| CC(C)C[C@@H]1NC(=O)[C@H](CCC(=O)O)NC(=O)[C@@H]2CSSC[C@@H]3NC(=O)[C@H](C)NC(=O)[C@@H]4CCCN4C(=O)[C@H](CC(N)=O)NC(=O)[C@H](CSSC[C@H](NC(=O)[C@H](Cc4ccc(O)cc4)NC(=O)[C@H](CC(N)=O)NC(=O)[C@H](CO)NC(=O)[C@H](CO)NC(=O)CN4CCCN(CC(=O)O)CCN(CC(=O)O)CCCN(CC(=O)O)CC4)C(=O)N2)NC(=O)[C@H](CSSC[C@@H](C(=O)N[C@@H](Cc2ccccc2)C(=O)O)NC(=O)CNC(=O)[C@H]([C@@H](C)O)NC3=O)NC1=O [copper-64 labelled] | T84 |  |  | concentration not given, 100 min, pH 5.5, 37 °C, 64Cu-labelled compound | relative to: cell-associated | internalized radioactivity | 49.1 ± 2.7% |

For quick reference, copied from above:
| SMILES | tested on | test | system | setting | scale | quantity | result |
| --- | --- | --- | --- | --- | --- | --- | --- |
| NC[C@@H](NC[C@@H]1CCCN1C[C@@H](CO)NC[C@@H](NCCc1ccc(-c2ccccc2)cc1)c1ccccc1)c1ccccc1 | Klebsiella pneumoniae | bacterial growth |  | 24 µM, fold shift of IC90, together with: amikacin |  | potentiation of amikacin | 1 fold |
| CC1CCCCCCCCCCCCC(=O)C1 (stereo not shown) | Manis javanica OBP3 F52A |  |  | concentration not given | relative to: wild type | binding affinity | decreased |
